Published values gathered from unrelated publications.
Every numbered part comes from another study and shows a few of its results, in no order.

Series 1 — method: RNA Bind-n-Seq; form: RNA; matrix: in vitro; tested at: 1 µM; setting: whole 134-nt RNA, ends assumed; added: 150 mM KCl; relative to: input library; reading: higher = stronger binding; measurement: log2 enrichment
Target: Ras GTPase-activating protein-binding protein 1, RRM domain (G3BP1, Homo sapiens, UniProt Q13283)
UniProt Q13283, sequence (whole entry, looked up): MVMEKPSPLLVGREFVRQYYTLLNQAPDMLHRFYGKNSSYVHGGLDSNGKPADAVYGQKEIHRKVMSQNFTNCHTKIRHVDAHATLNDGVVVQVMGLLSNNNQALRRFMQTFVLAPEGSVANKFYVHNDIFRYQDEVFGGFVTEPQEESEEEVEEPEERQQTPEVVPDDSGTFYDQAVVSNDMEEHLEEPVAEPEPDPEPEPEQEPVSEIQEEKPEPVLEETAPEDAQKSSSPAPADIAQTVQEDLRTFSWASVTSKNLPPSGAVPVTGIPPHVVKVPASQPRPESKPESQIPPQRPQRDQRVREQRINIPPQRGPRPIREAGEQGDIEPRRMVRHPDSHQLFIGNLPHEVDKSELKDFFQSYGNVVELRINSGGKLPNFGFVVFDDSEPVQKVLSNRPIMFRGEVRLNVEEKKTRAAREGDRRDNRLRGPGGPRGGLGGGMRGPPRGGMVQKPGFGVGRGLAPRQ
Shared flanks, not repeated: GGGAGUUCUACAGUCCGACGAUC … UGGAAUUCUCGGGUGUCAAGG
CAAGUCCUGUGCUACACAUCGUAUGUACCGAAUCGGAAAAAGGAAAGGAAAAAGGAAAGUAUUAUGUUACGCCGUUCGGAUCUGCACUUC: -0.0655
CAAGUCCUGUGCUACACAUCGUAUGUACCGAAUCGGGUUUGGGAGGGUUUUUGGGAAAGUAUUAUGUUACGCCGUUCGGAUCUGCACUUC: 0.607
ACCAUGCAGGUGGGCAUAAAUGGGAAGUGGGGCAAGGGGGGGAUAGGGAGGGGGGUAACACUUUGGGAACAGGUGGUCCCAGGUCGUUUC: -0.471
ACCAUGCAGGUGGGCAUCUUUGGGAAGUGGGGCAAGGGGGGGAUAGGGAGGGGGAUAACACUUUGGGAACAGGUGGUCCCAGGUCGUUUC: 0.385
CACAGACAACACGCACCCACACAGACACAGAGGGAAGGGGUUGGGAUGGGGACAGGGUGCACAGCAGGGCGGGGUAGGACCCCAGCACCU: -0.538
GUCCUGUGCUACACAUCGUAUGUACCGAAUCGGGGUUUUUGGGUUUUUGGGGUUUUUGGAAAGUAUUAUGUUACGCCGUUCGGAUCUGCA: -0.261
AGUCCUGUGCUACACAUCGUAUGUACCGAAUCAAAUUUUUAAAUUUUUAAACCCAAAAAAGUAUUAUGUUACGCCGUUCGGAUCUGCACU: -1.32
UCAAGUCCUGUGCUACACAUCGUAUGUACCGAAUCGGUUUUUGGUUUGGUUUGGAAAGUAUUAUGUUACGCCGUUCGGAUCUGCACUUCC: -0.247
CACAGACAACACGCACCCACACAGACACAGAGGGAAGGGGUUGGGAUGGGGACAGGGUGCGCAGCAGGGCGGGGUAGGACCCCAGCCCCU: -0.202
UGGCCCUGGUGGCAUGCGGGGAGGAAGAGGUGGCCUCAUGGAUCGUGGUUGUCCCGGUGGAAUGUUCAGAGGUGGCCGUGGUGGAGACAG: 0.709

Series 2 — method: protein-binding microarray; form: double-stranded DNA, one strand shown; matrix: in vitro; tested at: 2540 nM top; setting: 60-bp whole probe; added: salmon DNA 0.4 mg/ml; relative to: random background probes; reading: higher = stronger binding; measurement: fitted relative affinity; shared flanks, not repeated: GCCTAGCAC … GTCTTGATTCGCTTGACGCTGCTG
Target: Interferon regulatory factor 3, full length, phosphomimetic (IRF3, Homo sapiens, UniProt Q14653, residues 1-427, S386D/S396D/S398D/S402D/T404D/S405D)
Target sequence (chain): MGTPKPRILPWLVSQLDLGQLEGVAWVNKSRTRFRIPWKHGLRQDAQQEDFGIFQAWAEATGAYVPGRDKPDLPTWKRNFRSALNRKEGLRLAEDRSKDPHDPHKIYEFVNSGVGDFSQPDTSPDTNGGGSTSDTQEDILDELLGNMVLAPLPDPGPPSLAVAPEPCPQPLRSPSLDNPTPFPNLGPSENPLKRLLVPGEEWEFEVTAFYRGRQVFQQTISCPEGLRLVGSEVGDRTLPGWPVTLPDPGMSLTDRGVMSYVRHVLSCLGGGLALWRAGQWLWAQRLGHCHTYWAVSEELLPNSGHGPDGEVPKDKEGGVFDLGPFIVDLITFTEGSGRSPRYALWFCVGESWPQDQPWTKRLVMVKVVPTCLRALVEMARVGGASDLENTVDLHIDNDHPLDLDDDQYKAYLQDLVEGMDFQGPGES
CTTGTTTTACAATTTGCTTTGTGCTAG: 1.46 z-score
TCAGGCTTCATGTTGCTCACTGTGCTA: -0.542 z-score
CAGGAATGGCACCAGCAGGGGTGCTAG: -0.713 z-score
GACGGTCTTCTTCTCCTGACGTGCTAG: 1.04 z-score
TGAGGACTGGGGACTGGGTTAGTGCTA: -1.36 z-score
GACGGACCGCTTCTCCTGACGTGCTAG: 0.129 z-score
TTAGATATCAGTGTCGATTAGTGCTAG: 0.708 z-score
TCAACTTGGAATTTCCCACTGTGCTAG: 0.486 z-score
GACGGTTTCGCGTATCGGGACGTGCTA: 2.38 z-score
TTAGATCTCAGACTGGAGTAGTGCTAG: -0.198 z-score
CTGGTCCTCCTGACTGGGGTGGTGCTA: -0.117 z-score
GACGTTCTCAGACTGGAGACGTGCTAG: 0.967 z-score
CTAGGTTTCGGGACTGGGTTAGTGCTA: 4.04 z-score
TTAGATCTCAGTTTGGATTAGTGCTAG: 0.44 z-score
CTCCACTTGTGTTTGGGCATGTGCTAG: -0.268 z-score
TCAACTGTCTGTTTCCTACTGTGCTAG: 2.89 z-score
TTAGATCTCGGGTTTCGATTAGTGCTA: 1.54 z-score
TCCTTTTAATTTTTAACGAGGTGCTAG: 3.8 z-score
GAGGATATCGGGTATCGAGACGTGCTA: -0.31 z-score
TTAGGACTGGTACTGGGTTAGTGCTAG: -0.703 z-score
GACGGTATCGACTAACGGGACGTGCTA: 0.354 z-score
TCCACTTTCTTAATGCTTCTGTGCTAG: 2.2 z-score

Series 3 — method: universal PBM; form: double-stranded DNA, one strand shown; matrix: in vitro; tested at: 600 nM; reading: higher = stronger binding; measurement: E-score
Target: Sal-like protein 4, full length isoform A (SALL4, Homo sapiens, UniProt Q9UJQ4, residues 1-1053)
UniProt Q9UJQ4, sequence (whole entry, looked up): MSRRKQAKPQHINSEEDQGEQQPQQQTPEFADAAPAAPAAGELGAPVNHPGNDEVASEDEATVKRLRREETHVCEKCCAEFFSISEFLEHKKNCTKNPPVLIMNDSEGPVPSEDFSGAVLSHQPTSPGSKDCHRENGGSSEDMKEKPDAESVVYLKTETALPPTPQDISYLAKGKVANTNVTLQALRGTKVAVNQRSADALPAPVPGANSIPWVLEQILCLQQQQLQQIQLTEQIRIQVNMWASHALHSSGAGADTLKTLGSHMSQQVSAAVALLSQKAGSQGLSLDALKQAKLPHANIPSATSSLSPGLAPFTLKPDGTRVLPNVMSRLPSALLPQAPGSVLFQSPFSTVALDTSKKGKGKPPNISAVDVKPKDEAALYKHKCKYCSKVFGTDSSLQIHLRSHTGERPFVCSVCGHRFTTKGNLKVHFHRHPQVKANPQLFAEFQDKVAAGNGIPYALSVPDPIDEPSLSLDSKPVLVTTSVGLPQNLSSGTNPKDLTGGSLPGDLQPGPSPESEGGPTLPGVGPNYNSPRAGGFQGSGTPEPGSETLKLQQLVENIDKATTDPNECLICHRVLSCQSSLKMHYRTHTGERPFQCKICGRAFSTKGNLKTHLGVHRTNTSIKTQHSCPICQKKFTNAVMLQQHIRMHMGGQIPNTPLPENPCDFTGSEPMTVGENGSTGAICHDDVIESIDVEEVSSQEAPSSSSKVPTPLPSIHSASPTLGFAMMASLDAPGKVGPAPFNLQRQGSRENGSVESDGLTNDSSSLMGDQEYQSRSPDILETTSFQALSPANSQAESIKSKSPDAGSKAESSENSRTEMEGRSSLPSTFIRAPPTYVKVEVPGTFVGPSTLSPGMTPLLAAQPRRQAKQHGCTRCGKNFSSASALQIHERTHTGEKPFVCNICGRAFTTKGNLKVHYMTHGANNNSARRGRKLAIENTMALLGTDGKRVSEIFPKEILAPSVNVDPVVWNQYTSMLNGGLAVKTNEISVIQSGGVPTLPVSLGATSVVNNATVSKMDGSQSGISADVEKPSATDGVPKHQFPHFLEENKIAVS
Setting: 8-mer, flanks averaged, mean of replicates
CCTCAGAA: 0.0384
AGCACCAC: -0.326
TGGGTGAA: 0.256
AAGGATCG: 0.0769
TTCATGAA: 0.181
GAGGTGCC: -0.34
ATAGGGCC: -0.217
GATAACAA: 0.258
AAAAAAGG: 0.0531
CAAACCCA: 0.0978
CCAGACGC: -0.284
CCAAACCG: -0.319
CTGTACTC: -0.0636
CTTAGTCC: -0.0827
AATGATGC: 0.105
TCGGATAA: 0.188

Series 4 — method: protein binding microarray; form: double-stranded DNA, one strand shown; matrix: in vitro; tested at: not given; relative to: not given; reading: higher = stronger binding; measurement: E-score
Target: Histone acetyltransferase KAT6A, both winged helices, GST fusion (KAT6A, Homo sapiens, UniProt Q92794, residues 1-181)
Setting: 8-mer, flanks averaged, mean of 2 arrays, mostly near background
Target sequence (chain): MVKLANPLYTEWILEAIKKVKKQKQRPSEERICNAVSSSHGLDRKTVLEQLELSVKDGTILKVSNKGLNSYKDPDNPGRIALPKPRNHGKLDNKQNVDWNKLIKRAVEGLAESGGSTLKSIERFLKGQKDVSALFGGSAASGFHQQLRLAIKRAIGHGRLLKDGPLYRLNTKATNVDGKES
GACCCACC: -0.0624
CGTTAGAC: 0.0573
CGAGTCAA: -0.0759
AGATGACA: -0.145
AGCGAGCC: 0.0398
CTGACTTC: -0.0256
AAAAGCCC: -0.131
ATAAGGTA: -0.124
AACGTACA: -0.0867
TCGTATAA: -0.0267
GGTGTATA: -0.0809
GAATCACA: 0.0563
CATCGGGC: 0.0654
AAAACTGC: -0.0386
CAGATGCG: 0.0541
CCTCGCTA: -0.00874
ATGGTTTA: -0.0354
ATAATCTA: 0.0411
CCGGCGAC: 0.289
GTCAGATA: -0.0926
ATCCATCG: -0.0896
GGTACGCA: 0.0758
TCAACAGA: -0.137
CGGAAAAG: 0.16
GCATCCAC: 0.088

Repeated from above (series 2):
CTAGGTTTCGGGACTGGGTTAGTGCTA: 4.04 z-score
TTAGATCTCAGTTTGGATTAGTGCTAG: 0.44 z-score
CTCCACTTGTGTTTGGGCATGTGCTAG: -0.268 z-score
TCAACTGTCTGTTTCCTACTGTGCTAG: 2.89 z-score
TTAGATCTCGGGTTTCGATTAGTGCTA: 1.54 z-score
TCCTTTTAATTTTTAACGAGGTGCTAG: 3.8 z-score
GAGGATATCGGGTATCGAGACGTGCTA: -0.31 z-score
